Assay results pooled from the literature.
Each numbered part is a random draw from the data of one study; scales do not carry over between parts.
Chain of UniProt Q8N4C8 (whole entry, looked up): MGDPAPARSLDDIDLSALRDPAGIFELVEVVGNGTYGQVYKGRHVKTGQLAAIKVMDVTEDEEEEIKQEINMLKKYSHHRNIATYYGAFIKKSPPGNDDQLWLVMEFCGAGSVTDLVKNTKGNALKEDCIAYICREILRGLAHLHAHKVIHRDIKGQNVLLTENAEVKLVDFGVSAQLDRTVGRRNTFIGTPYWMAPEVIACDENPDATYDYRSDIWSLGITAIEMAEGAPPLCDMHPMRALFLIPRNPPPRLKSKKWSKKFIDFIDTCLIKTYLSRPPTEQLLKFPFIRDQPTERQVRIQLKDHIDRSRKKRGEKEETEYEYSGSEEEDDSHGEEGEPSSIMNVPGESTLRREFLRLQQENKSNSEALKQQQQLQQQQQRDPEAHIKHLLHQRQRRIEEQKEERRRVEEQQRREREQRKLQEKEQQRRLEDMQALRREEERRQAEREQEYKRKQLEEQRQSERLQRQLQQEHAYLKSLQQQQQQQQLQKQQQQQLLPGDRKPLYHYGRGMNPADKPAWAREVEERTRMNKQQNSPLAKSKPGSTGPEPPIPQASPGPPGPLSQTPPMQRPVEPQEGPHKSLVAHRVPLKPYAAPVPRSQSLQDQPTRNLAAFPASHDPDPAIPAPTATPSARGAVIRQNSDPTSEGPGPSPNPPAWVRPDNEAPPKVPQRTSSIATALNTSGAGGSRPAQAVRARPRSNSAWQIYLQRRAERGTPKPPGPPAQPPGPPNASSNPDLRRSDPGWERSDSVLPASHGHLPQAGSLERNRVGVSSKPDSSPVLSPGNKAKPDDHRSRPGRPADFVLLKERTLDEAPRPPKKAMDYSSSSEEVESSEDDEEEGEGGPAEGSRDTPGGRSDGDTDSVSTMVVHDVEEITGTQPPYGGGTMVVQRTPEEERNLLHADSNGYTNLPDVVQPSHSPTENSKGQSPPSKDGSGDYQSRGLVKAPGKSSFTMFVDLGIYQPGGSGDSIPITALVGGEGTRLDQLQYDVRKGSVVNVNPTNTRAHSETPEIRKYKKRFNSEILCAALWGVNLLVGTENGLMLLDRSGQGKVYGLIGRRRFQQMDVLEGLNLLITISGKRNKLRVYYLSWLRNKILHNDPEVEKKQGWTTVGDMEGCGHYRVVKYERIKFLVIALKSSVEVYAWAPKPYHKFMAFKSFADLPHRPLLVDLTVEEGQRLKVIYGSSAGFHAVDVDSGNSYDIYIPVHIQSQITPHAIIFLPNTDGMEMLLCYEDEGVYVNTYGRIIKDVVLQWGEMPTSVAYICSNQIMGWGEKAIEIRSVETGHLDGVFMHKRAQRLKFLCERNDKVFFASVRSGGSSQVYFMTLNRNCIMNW
Chain of UniProt Q16539 (whole entry, looked up): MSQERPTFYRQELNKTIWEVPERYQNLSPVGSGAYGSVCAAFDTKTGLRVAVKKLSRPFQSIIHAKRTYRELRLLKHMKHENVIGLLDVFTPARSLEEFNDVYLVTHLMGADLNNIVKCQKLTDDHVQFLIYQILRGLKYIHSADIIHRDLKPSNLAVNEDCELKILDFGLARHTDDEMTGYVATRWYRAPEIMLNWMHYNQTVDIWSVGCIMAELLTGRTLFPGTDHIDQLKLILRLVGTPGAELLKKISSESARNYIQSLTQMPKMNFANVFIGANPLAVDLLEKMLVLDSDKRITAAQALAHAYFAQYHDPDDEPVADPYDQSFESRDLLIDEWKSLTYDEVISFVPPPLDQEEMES
Chain of UniProt P08588 (whole entry, looked up): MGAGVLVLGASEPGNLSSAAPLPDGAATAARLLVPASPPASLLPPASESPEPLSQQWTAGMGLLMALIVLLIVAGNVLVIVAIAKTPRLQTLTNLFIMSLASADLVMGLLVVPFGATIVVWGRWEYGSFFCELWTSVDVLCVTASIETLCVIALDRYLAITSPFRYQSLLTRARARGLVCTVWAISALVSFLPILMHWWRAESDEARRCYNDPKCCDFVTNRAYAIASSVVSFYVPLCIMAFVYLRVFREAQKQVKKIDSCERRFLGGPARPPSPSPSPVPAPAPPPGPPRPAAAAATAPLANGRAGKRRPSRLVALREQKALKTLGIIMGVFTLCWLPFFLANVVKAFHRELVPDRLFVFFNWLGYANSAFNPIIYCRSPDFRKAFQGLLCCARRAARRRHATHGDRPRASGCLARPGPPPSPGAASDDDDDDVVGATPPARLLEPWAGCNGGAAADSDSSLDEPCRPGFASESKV
Chain of UniProt Q86UE8 (whole entry, looked up): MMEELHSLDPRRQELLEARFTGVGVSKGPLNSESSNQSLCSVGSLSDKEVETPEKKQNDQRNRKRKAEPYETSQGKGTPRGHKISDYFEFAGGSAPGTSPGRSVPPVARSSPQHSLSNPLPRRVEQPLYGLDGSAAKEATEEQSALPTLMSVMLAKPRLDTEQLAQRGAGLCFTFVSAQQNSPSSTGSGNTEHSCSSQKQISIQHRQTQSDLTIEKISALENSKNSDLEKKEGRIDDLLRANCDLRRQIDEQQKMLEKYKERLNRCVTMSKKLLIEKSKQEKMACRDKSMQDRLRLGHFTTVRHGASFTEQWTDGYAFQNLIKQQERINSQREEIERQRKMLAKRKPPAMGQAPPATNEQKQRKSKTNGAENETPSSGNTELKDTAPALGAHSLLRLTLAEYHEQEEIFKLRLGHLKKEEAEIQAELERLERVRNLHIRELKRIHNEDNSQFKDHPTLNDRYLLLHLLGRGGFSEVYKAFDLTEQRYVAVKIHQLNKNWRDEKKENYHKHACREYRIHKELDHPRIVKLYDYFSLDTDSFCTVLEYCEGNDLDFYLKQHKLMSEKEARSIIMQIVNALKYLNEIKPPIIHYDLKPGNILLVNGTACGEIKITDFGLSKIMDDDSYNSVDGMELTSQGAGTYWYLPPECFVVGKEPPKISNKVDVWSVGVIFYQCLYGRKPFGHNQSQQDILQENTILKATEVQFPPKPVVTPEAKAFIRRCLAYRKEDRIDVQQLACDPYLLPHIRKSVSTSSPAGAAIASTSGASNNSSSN
Chain of UniProt P49761 (whole entry, looked up): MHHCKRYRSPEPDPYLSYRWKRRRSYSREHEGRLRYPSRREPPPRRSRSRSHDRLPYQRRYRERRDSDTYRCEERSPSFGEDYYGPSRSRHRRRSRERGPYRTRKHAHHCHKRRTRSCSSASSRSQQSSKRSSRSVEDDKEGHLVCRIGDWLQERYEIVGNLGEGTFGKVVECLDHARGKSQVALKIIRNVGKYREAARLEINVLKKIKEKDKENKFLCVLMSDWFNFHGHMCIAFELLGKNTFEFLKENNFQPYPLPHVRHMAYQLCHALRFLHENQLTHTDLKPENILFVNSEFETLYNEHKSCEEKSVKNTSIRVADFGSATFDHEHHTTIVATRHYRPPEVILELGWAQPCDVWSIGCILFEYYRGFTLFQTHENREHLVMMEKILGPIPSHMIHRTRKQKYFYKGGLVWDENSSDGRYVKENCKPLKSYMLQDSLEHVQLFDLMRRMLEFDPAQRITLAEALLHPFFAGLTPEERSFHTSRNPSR
Chain of UniProt Q9HAZ1 (whole entry, looked up): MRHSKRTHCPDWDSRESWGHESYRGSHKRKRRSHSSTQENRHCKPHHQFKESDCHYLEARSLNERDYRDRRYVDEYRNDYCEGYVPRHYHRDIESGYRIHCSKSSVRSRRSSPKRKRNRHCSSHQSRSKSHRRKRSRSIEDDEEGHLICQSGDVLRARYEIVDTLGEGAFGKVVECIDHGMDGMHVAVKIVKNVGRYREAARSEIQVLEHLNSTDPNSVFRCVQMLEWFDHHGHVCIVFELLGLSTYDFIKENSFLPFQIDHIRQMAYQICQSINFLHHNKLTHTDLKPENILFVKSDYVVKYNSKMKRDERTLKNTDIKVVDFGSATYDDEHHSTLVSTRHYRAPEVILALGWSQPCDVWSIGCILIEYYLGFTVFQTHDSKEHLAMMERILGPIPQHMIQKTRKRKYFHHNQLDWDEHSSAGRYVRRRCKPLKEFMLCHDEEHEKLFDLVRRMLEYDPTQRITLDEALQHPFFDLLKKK
Chain of UniProt P78362 (whole entry, looked up): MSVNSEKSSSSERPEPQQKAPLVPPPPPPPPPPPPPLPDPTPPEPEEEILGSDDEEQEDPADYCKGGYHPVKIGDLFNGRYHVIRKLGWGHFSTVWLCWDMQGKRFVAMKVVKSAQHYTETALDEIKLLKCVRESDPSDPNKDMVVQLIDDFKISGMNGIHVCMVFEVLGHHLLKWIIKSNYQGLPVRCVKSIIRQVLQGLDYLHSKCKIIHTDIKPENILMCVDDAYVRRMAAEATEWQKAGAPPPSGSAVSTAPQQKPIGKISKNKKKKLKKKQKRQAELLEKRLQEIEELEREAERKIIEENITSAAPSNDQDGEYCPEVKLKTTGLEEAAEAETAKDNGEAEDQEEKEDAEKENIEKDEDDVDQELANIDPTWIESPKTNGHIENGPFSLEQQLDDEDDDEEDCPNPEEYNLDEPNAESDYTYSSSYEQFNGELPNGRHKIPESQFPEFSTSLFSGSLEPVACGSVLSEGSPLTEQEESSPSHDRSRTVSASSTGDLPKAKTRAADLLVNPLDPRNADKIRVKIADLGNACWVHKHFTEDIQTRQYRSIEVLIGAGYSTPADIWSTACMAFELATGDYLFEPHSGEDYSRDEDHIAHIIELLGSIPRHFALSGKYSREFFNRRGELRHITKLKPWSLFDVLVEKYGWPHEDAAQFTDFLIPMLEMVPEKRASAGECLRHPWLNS
Chain of UniProt P14416 (whole entry, looked up): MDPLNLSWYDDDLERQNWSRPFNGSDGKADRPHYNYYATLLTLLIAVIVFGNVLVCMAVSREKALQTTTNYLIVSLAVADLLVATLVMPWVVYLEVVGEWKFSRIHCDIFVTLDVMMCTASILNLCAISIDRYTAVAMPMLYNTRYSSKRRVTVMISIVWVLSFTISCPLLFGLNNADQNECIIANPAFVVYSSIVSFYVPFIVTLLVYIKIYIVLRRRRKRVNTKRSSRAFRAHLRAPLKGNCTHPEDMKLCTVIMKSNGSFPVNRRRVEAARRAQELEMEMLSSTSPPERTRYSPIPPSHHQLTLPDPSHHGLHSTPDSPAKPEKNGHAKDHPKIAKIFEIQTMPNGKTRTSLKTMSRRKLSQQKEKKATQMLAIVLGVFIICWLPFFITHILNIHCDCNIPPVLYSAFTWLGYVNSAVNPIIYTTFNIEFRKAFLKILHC

Sample 1
SMILES: CCC(=O)N[C@@H]1CC[C@H](C(=O)N(C)c2ccc(-c3nc4ccccc4o3)cc2)C1
Read-out: binding
Technique: radioligand binding
Tested at: 10 µM
target | inhibition [%]
ADRA2A (Homo sapiens, UniProt P08913) | 11.2
ADRB1 (Homo sapiens, UniProt P08588) | -4.55
TMEM97 (Homo sapiens, UniProt Q5BJF2) | 62.9
DRD2 (Homo sapiens, UniProt P14416) | 18.6

Sample 2
Compound: C=CC(=O)N1CCC[C@@H](n2nc(-c3ccc(Oc4ccccc4)cc3)c3c(N)ncnc32)C1
Mode: inhibitor
Tested at: 1 µM
target | test | inhibition
STK4 (Homo sapiens, UniProt Q13043) | – | 9%
TNNI3K (Homo sapiens, UniProt Q59H18) | enzyme activity | 66%
SRPK2 (Homo sapiens, UniProt P78362) | enzyme activity | 7%
EGFR (Homo sapiens, UniProt P00533, T790M) | – | 96%
MINK1 (Homo sapiens, UniProt Q8N4C8) | enzyme activity | 23%
MAP3K20 (Homo sapiens, UniProt Q9NYL2) | enzyme activity | 62%
MKNK2 (Homo sapiens, UniProt Q9HBH9) | – | 49%

Sample 3
Cell line: mouse MPNST tumor cells
Technique: high-content nuclear imaging
Measured: cell number
Tested at: 10 µM
Time: 12 h
Setting: mean of 2 replicates
Relative to: plate mean
Reading: higher = more cells
SMILES | nuclei count [z-score]
O=C(Nc1cc(C(F)(F)F)cc(C(F)(F)F)c1)Nc1c(Br)cc(Br)cc1-c1nn[nH]n1 | 1.43
COc1ccc(-n2[nH]c3c4c(ncc3c2=O)CCCCC4)cc1 | 1.65
CCN1CCCC1CNC(=O)c1cc(S(=O)(=O)CC)c(N)cc1OC (centres unmarked) | 0.524
Cc1cc(C(C)(C)C)c(O)c(C)c1CC1=NCCN1 | 3.76
Nc1ccccc1S(N)(=O)=O | 1.18
O=[N+]([O-])c1cc(Cl)ccc1S(=O)(=O)c1ccccc1 | -1.88
c1ccc(C(O[C@@H]2CCCN(CCc3ccc4c(c3)OCO4)C2)c2ccccc2)cc1 | 1.52

Sample 4
Compound: O=C(Nc1ccc(Cl)cc1)c1ccccc1NCc1ccncc1
Read-out: enzyme activity
Mode: inhibitor
Tested at: 0.5 µM
Relative to: control
target | remaining activity
DDR2 (Homo sapiens, UniProt Q16832) | 88.9%
MAPK11 (Homo sapiens, UniProt Q15759) | 91.4%
MAPK14 (Homo sapiens, UniProt Q16539) | 128%
KDR (Homo sapiens, UniProt P35968) | 28.2%
MINK1 (Homo sapiens, UniProt Q8N4C8) | 96.9%
CLK3 (Homo sapiens, UniProt P49761) | 98.1%
Cyclin-dependent kinase 9, with cyclin K (CDK9, Homo sapiens, UniProt P50750) | 95.5%
ROCK1 (Homo sapiens, UniProt Q13464) | 98.4%
TLK2 (Homo sapiens, UniProt Q86UE8) | 97.3%
MARK4 (Homo sapiens, UniProt Q96L34) | 107%
CLK4 (Homo sapiens, UniProt Q9HAZ1) | 107%
Cyclin-dependent kinase 1, with cyclin A (CDK1, Homo sapiens, UniProt P06493) | 91.8%
PRKG2 (Homo sapiens, UniProt Q13237) | 99.1%
MAPK1 (Homo sapiens, UniProt P28482) | 94.7%

Repeated from above (sample 4):
target | remaining activity
MINK1 (Homo sapiens, UniProt Q8N4C8) | 96.9%
Cyclin-dependent kinase 1, with cyclin A (CDK1, Homo sapiens, UniProt P06493) | 91.8%
